# Measurements collected from several papers.
# Each numbered part is a random draw from the data of one study; scales do not carry over between parts.

# Set 1
# Target: Interferon regulatory factor 5, full length, phosphomimetic (IRF5, Homo sapiens, UniProt Q13568-2, residues 1-514, S451D/S453D/S456D/S462D)
# Technique: protein-binding microarray
# Molecule type: double-stranded DNA, one strand shown
# Matrix: in vitro
# Tested at: 940 nM top
# Setting: 60-bp whole probe
# Together with: salmon DNA 0.4 mg/ml
# Baseline: random background probes
# Direction: higher = stronger binding
# All sequences stand within: GCCTAGCAC … GTCTTGATTCGCTTGACGCTGCTG
Oligonucleotide,fitted relative affinity
GACTCTTTCTGTCAGTTTTGGTGCTAG,1.9 z-score
TTAGAACTGTGGACTGGATTAGTGCTA,-0.479 z-score
TTAGAACTGGGGTATCGACTAGTGCTA,1.43 z-score
GACGATATCGGGACTGGAAACGTGCTA,0.0789 z-score
GACGGACGGGACTATCGGGACGTGCTA,-0.292 z-score

# Set 2
# Target: RNA binding protein fox-1 homolog 2, RRM domain, GST-SBP tag (RBFOX2, Homo sapiens, UniProt O43251-10, residues 100-194)
# Technique: RNA Bind-n-Seq
# Molecule type: RNA
# Matrix: in vitro
# Tested at: 365 nM
# Setting: natural RNA segment, single round, ends assumed
# Baseline: no-protein control
# Direction: higher = stronger binding
Oligonucleotide,RBNS enrichment (R)
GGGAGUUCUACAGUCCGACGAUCGUAAAUAAAAUGGAUGUAAUAUAAGUUGUAAGUAACGUUGUCAAAACUCUGAUCCCGAUGGAGGCUGCACGCCUCCCCCACCCCAUGAUAGCAUCUGUGUGUAUUAAUUCUGGAAUUCUCGGGUGCCAA,0.788
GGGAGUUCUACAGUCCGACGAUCAGGGGUACAGAAAUUAUCCCCCUACAACCCCAGCCUCCUGAGGGCUCCAUGCUGAAGGCUCCCAUUUUCAGUUCCCUCCUGCCCAGGACUGCAUUGUUUUCUAGCCCCGAUGGAAUUCUCGGGUGCCAA,0.613
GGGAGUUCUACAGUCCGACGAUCUCACUGAUUGAGAUUACUUUGUAAGUAGCUGUUCAGAAGAAUAAAAUAUGACUGUUUUAGGGACUAGACCAUGUGCUUUUUUAACACUUAUAUAUAUAAUGGUCUAUUUGUGGAAUUCUCGGGUGCCAA,0.436
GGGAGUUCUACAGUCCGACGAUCAUCUUCUAAGGAGUUUUAGAUUUAGAUAUUUCUCUCCGCUUUAAAAAAAAAUAAAAUUUGAGUGGAAAUAAUGUUAUUAAACCAUUCUUCUAAUGCUUCACUUUUGAUGAUGGAAUUCUCGGGUGCCAA,0.661
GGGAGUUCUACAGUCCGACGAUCAAUGCUCCUGGCAUUUCUGGAGCAGGAGGUUGUCAGGACAACACAUAUAACCACCAAGGAUGUGUUGGCCUUUGGAGUUCCCCUUUAGGUUCCUAGUGAUGUGGAGGUUUUGGAAUUCUCGGGUGCCAA,0.498

# Set 3
# Target: Sal-like protein 4, full length isoform A (SALL4, Homo sapiens, UniProt Q9UJQ4, residues 1-1053)
# Sequence of UniProt Q9UJQ4 (whole entry, looked up): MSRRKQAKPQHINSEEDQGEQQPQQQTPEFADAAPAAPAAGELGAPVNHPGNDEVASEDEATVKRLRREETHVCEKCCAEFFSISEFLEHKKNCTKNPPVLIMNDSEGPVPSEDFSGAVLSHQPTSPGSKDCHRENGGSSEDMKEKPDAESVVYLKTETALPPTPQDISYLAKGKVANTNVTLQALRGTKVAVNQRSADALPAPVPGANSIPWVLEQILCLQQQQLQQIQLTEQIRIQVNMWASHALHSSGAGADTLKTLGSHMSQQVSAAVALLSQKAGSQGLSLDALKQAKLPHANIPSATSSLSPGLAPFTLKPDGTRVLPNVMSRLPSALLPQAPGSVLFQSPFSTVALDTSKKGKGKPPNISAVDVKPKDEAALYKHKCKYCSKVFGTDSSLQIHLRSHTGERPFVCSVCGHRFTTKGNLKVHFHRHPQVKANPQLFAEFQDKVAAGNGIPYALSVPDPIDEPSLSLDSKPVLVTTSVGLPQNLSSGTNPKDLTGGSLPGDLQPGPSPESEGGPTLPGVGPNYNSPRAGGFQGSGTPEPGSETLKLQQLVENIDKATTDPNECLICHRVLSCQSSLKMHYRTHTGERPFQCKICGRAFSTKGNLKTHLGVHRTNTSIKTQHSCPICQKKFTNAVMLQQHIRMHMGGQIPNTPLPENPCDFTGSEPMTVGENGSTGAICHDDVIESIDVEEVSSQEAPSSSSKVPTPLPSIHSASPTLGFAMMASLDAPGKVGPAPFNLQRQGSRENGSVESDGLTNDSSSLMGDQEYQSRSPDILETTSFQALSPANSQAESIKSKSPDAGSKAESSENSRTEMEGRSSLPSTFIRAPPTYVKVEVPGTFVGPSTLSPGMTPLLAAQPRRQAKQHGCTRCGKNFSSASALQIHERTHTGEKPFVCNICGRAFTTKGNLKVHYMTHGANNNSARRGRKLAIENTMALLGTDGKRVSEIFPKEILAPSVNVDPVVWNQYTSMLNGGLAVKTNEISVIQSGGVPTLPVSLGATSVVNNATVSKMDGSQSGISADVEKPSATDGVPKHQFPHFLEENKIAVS
# Technique: universal PBM
# Molecule type: double-stranded DNA, one strand shown
# Matrix: in vitro
# Tested at: 600 nM
# Setting: 8-mer, flanks averaged, mean of replicates
# Direction: higher = stronger binding
Oligonucleotide,E-score
GCGACGAC,-0.268
CCAGGGCC,-0.442
TCGATCCA,-0.0611
CAAATACA,0.292
CTCCTGCA,-0.115
CAAGGGTG,-0.16
ATAAGGGA,0.161

# Single results of other studies
Molecule,target,test,system,conditions,scale,measurement,value
"PhoQ, residues 284 288 289 292 302 303 TGYLSA","PhoP, residues 12 14 15 18 19 LWHSL (Escherichia coli, UniProt P23836)","Sort-seq, refers to: YFP reporter",E. coli,"PhoQ-PhoP variant library, together with: 10 µM Mg2+","baseline: high Mg2+ state, higher = stronger signaling",fold induction,6.23

# Repeated from above (set 3):
Oligonucleotide,E-score
CAAGGGTG,-0.16
